Published values pooled from the literature.
Compare with care: the assays were run in different laboratories. Values joined by “and” are separate records of one study, mostly repeats; a detail may differ.
Target: Serine/threonine-protein kinase PLK1 (PLK1, Homo sapiens, UniProt P53350)
Sequence of UniProt P53350 (whole entry, unmodified, looked up): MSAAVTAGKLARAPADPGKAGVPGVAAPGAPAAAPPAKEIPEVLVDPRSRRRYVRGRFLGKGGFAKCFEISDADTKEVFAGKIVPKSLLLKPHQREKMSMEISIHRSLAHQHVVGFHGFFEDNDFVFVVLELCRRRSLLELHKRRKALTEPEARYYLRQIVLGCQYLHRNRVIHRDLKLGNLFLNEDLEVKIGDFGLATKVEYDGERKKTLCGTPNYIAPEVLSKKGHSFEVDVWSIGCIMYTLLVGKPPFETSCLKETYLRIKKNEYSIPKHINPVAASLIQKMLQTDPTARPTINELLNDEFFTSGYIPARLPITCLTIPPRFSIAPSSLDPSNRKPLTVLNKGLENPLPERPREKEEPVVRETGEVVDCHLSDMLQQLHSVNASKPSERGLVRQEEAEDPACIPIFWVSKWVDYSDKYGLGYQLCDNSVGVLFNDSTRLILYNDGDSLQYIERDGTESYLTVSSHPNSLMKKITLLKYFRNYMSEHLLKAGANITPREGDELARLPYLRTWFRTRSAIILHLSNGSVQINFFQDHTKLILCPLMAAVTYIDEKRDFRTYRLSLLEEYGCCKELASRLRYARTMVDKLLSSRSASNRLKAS

Compound | test | conditions | how to read | endpoint | result
NC(=O)[C@@H](O)C[C@H]1CCc2sc3ncnc(O[C@H]4CC[C@H](N5CCOCC5)CC4)c3c21 | enzyme activity, inhibitor | 10 µM |  | inhibition | 0%
Cc1cnc2nc1Nc1cccc(c1)COC/C=C/COCc1cc(ccc1OCCN1CCOCC1)N2 | binding | 0.1 µM |  | remaining binding | 100%
Cc1cccc(-c2ccc3nc(NC(=O)C4CCCCC4)nn3c2)c1 | enzyme activity, Dundee kinase panel | 10 µM |  | remaining activity | 81%
COc1c(OCCCN2CCOCC2)ccc2c1N=C(NC(=O)c1cnc(N)nc1)N1CCN=C21 | kinase activity, inhibitor | 1 µM | baseline: untreated control | remaining activity | 126%
CCn1cc(C(=O)O)c(=O)c2c(N)c(F)c(NC3CCCCC3)cc21 | kinase activity | 0.1 µM, added: ATP at Km |  | inhibition | -8%
CN1C[C@@H](c2c[nH]c3cc(Br)ccc23)NC[C@@H]1c1c[nH]c2cc(Br)ccc12 | enzyme activity, inhibitor | 10 µM |  | remaining activity | 108%
CNC(=O)C1CCN(c2cc(C)c(F)cc2NC(=O)c2ccc(-c3cc(O)ccc3C)c(C)c2)CC1 | binding, competition with immobilised ligand | 1 µM |  | remaining binding | 88%
Nc1nc(Nc2ccccc2)sc1C(=O)c1ccccc1 | enzyme activity, inhibitor | 10 µM |  | remaining activity | 65%
C=CC(=O)N1CCc2ccc(-n3c(=O)ccc4cnc5ccc(-c6cnn(C)c6)cc5c43)cc21 | KINOMEscan | 1 µM | baseline: DMSO control | remaining binding | 100%
Cc1cccc(-c2ccc3nc(NC(=O)C4CCOCC4)nn3c2)c1 | enzyme activity, Dundee kinase panel | 10 µM |  | remaining activity | 83%
COc1ccc(O)cc1-c1c[nH]c2ncc(-c3cncc(C(=O)N(C)C)c3)cc12 | binding, competition with immobilised ligand | 0.2 µM |  | inhibition | -8.12%
C=C1CCCCCCCCCC(CO)C1=O (stereo not shown) | cell-free assay, competition with immobilised ligand | 10 µM |  | remaining binding | 100%
CC[C@H](C)[C@H](NC(C)=O)C(=O)N[C@@H](CC(=O)O)C(=O)N1CCC[C@H]1C(=O)N1CCC[C@H]1C(=O)N[C@@H](CC(C)C)C(=O)N[C@@H](Cc1c[nH]cn1)C(=O)N[C@@H](CO)C(=O)N[C@H](C(=O)N[C@@H](C)C(N)=O)[C@@H](C)OP(=O)(O)O | polo-box domain binding, isothermal titration calorimetry | concentration not given, 25 °C |  | binding stoichiometry | 0.96
Nc1ncc(-c2cc(-c3cnn(CC(F)(F)F)c3)ncc2F)nc1C(=O)NC1CNCC(F)C1 (stereo not shown) | enzyme activity, inhibitor | 1 µM |  | remaining activity | 96%
c1ccc2c(Nc3cc(C4CCC4)[nH]n3)nc(Nc3ccc4nc[nH]c4c3)nc2c1 | enzyme activity, inhibitor | 0.25 µM |  | remaining activity | 65%
COCC12C(=O)NC3C4(C(OC)CC1O)C1CC5(O)C(OC)C(O)C(OC(C)=O)(C1C5OC(=O)c1ccccc1)C3(O)C(OC)C24 (stereo not shown) | kinase activity, inhibitor, ProQinase kinase profiling | 25 µM | baseline: control | remaining activity | 105% and 109%
CC(=O)N1c2ccc(-c3ccc(CNC(=O)c4cn5cc(-c6cnc(N)nc6)nc(N6CCOCC6)c5n4)cc3)cc2CC[C@@H]1C | KINOMEscan | 10 µM |  | remaining binding | 94%
CN1CCN(Cc2ccc(NC(=O)c3cccc(C#Cc4cnc(N)c5ncccc45)c3)cc2C(F)(F)F)CC1 | cell-free assay, competition with immobilised ligand | 0.5 µM |  | remaining binding | 83%
Cc1cccc(O[C@H]2CCC[C@@H](C(C)CNCc3ccncc3)C2)c1 (relative stereo) | enzyme activity, inhibitor | 10 µM |  | inhibition | -4%
O=C=[N][Ru-4]123([n]4c5ccc(O)cc5c5c6c(c7cc(F)c[n+]1c7c54)C(=O)NC6=O)[S+]1CC[S+]2CC[S+]3CC1 (stereo not shown) | enzyme activity | 100 nM, human enzyme, added: 10 µM ATP | baseline: untreated | remaining activity | 103%
COc1ccc(NC(=O)Nc2ccc3c(c2)C(=O)N(C(C)CO)CC(C)C(CN(C)Cc2ccc4c(c2)OCO4)O3)cc1 (stereo not shown) | binding, competition with immobilised ligand | 10 µM |  | remaining binding | 39%
C=CC(=O)N1CCCC(n2c(=O)c3ncccc3n(Cc3ccc(Oc4ccccc4)cc3)c2=O)C1 (stereo not shown) | cell-free assay, competition with immobilised ligand | 1 µM |  | remaining binding | 73%
C=CC(=O)Nc1cccc(-c2cnc3[nH]cc(C(=O)NC(C)(C)C)c3n2)c1 | kinase activity | 0.1 µM |  | inhibition | 6% and 3%
COc1cc(Nc2nc(C)cc(-c3cnn4nc(OC)ccc34)n2)cc(C(F)(F)F)c1 | inhibitor | 1 µM | baseline: control | remaining activity | 87%
O=C(Cc1ccc(OCc2ccccc2)cc1)NC1(C(=O)O)CCN(C(=O)c2ccc(-c3cccc(Cl)c3)cc2)CC1 | enzyme activity, inhibitor | 10 µM |  | activity vs control | 91%

A few entries again:
Compound | test | conditions | how to read | endpoint | result
Nc1ncc(-c2cc(-c3cnn(CC(F)(F)F)c3)ncc2F)nc1C(=O)NC1CNCC(F)C1 (stereo not shown) | enzyme activity, inhibitor | 1 µM |  | remaining activity | 96%
c1ccc2c(Nc3cc(C4CCC4)[nH]n3)nc(Nc3ccc4nc[nH]c4c3)nc2c1 | enzyme activity, inhibitor | 0.25 µM |  | remaining activity | 65%
